# Experimental data gathered from unrelated publications.
# Several values in a cell are separate wells, animals, samples, runs or records. ± marks the error that the study gave.
# Sequence of UniProt Q8IU85 (whole entry, looked up): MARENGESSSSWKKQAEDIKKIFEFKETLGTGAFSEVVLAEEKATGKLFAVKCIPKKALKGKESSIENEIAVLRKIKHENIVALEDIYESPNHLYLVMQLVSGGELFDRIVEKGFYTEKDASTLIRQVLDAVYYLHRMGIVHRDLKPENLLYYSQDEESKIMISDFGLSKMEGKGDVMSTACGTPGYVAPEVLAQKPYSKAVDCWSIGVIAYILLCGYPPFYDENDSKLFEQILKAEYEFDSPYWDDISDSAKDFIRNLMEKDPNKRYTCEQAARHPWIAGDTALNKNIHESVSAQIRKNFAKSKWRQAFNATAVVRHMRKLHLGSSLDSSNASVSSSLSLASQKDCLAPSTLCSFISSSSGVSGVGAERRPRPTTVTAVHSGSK
SMILES,target or system,test,test system,setting,how to read,endpoint,result
CN([O-])C(=O)CN1CCN(CC(=O)N(C)[O-])CCN(Cc2ccccn2)CC1.[89Zr+4],,,"mouse, bone","intravenous, 1 h",,tracer uptake,2.76 %ID/g
CNS(=O)(=O)Nc1nccc(Cc2c(C)c3ccc(Oc4ncccc4F)cc3oc2=O)c1F,HCC1806,cell viability,,7 days,,IC50,0.013 µM
CN1CCC[C@]1(C)/C=C/S(=O)(=O)NC(=O)Nc1c2c(cc3c1CC(O)C3)CCC2 (stereo partly drawn),,,"human, plasma","oral, 12.5 mg twice daily of parent drug, day 14, metabolite of dosed drug",,Cmax at first steady-state dose,1700 ng/mL
C/C(N)=N/C(=N\S(=O)(=O)c1ccc(C(F)(F)F)cc1)N1C[C@H](c2ccccc2)C(c2ccc(Cl)cc2)=N1,,,"male C57BL/6 mouse, lung","intravenous, 5 mg/kg",,half-life,162 min
C=C(NC(=O)c1csc(-c2nc3c(cc2O)-c2nc(cs2)C(=O)NC(C(C)O)C(=O)NC(=C(C)OC)c2nc(cs2)C(=O)NC2c4nc(cs4)C(=O)NC(COC(=O)c4c5c6c(cccc6n4O)COC(=O)C(OC4CC(C)(O)C(N(C)C)C(C)O4)C2OC5)c2nc-3cs2)n1)C(N)=O (stereo not drawn),,,"Sprague-Dawley rat, both sexes, plasma","intravenous infusion, 6 mg/kg, multiple doses, day 1",,Tmax,4.8 min
O=C(Nc1cnccc1-c1ccc([18F])cc1)c1ccnc(NC(=O)C2CC2)c1,,ex vivo gamma counting,"GSK-3β transgenic mice, late-stage, liver","intravenous, 120 min, mean, no P-gp inhibitor",,SUV,5.43
O=C(Nc1cccc(CNc2ncccn2)c1)c1cc(-c2ccccc2)n(-c2ccccc2)n1,,,rat liver microsomes,4 h,,depletion,< 30%
COC1CN([C@H]2CC[C@H]([C@@]3(C)Oc4c(Cl)cc(C(=O)NCc5c(SC)cc(C)[nH]c5=O)c(C)c4O3)CC2)C1,,"RNA-seq, refers to: FHDC1","human, whole blood","dose not given, 24 h",baseline: pretreatment baseline,log2 fold change,2.12
Cc1nn(-c2nc3c(F)cc(F)cc3s2)c(O)c1C(c1ccc(C(F)(F)F)cc1)c1c(C)nn(-c2nc3c(F)cc(F)cc3s2)c1O,,,ICR mouse,"oral, 50 mg/kg, 2.00 h, mean, abnormal animals excluded",,plasma concentration,31300 ng/mL
C=CC(=O)Nc1cc(Nc2nccc(-c3c[nH]c4ccccc34)n2)c(OC)cc1N(C)CCN(C)C,,storage stability,human dried blood spot,"30 d, -80 °C, LQC level",,recovery,101%
CNc1cc(N)c(C(N)=O)cn1,,,"Han Wistar rats, male, plasma","oral, 30 mg/kg, 2.00 h",,concentration at time,13.6 µM
CN1CCCNC(=O)c2cccc(c2)C(=O)NCCCN(C)CCCNc2cccc3c2C(=O)c2cccc(c2C3=O)NCCC1,,,mouse xenograft model,"dose not given, day 0",,body weight,29 g and 25 g
COc1ccc2c(c1)C(C)(C)C(/C=C/C1=C(Oc3ccc(C(=O)NCCCCOc4cc(CN(Cc5ccccn5)Cc5ccccn5)cc(CN(Cc5ccccn5)Cc5ccccn5)c4)cc3)C(=C/C=C3/N(CCCCS(=O)(=O)[O-])c4ccc(OC)cc4C3(C)C)CCC1)=[N+]2CCCCS(=O)(=O)[O-].O=[N+]([O-])[O-].O=[N+]([O-])[O-].[99Tc+].[C-]#[O+].[C-]#[O+].[C-]#[O+].[Zn+2],Staphylococcus aureus,,"BALB/c mice, bacterial myositis, stomach with contents",12 h,,tissue uptake,1.24 %ID/g
Nc1ncc(-c2cc(-c3cnn(CC(F)(F)F)c3)ncc2F)nc1C(=O)NC1CNCC(F)C1 (stereo not drawn),ERK3,KINOMEscan,,1 µM,baseline: DMSO control,remaining binding,82%
C=CC(=O)N1CCCC(n2c(=O)c3ncccc3n(Cc3ccc(Oc4ccccc4)cc3)c2=O)C1 (stereo not drawn),,metabolic stability,"male beagle dog, hepatocytes","1 µM, 1 h",,compound remaining,43.5%
NC(=O)[C@H](CCC(=O)O)NC(=O)[C@H](CCC(=O)O)NC(=O)[C@H](Cc1ccc(O)cc1)NC(=O)[C@H](Cc1ccccc1)NC(=O)[C@H](Cc1ccccc1)NC(=O)OCC1c2ccccc2-c2ccccc21,,CD spectroscopy,peptide nanofibres,,,β-turn content,14.3%
CCOc1cc(CN2CCCC(CNC(=O)c3ccc(F)cc3)C2)ccc1OC (stereo not drawn),Trypanosoma cruzi,"reporter mRNA translation, inhibitor, refers to: Renilla luciferase mRNA",cell-free extract,"concentration not given, test 1",baseline: positive over negative control,translation activity,83.5%
N#C[C@@H]1CC(F)(F)CN1C(=O)CNC(=O)c1ccnc2c(NC(=O)[C@H](CCCCNC(=O)CCOCCOCCOCCOCCOCCOCCNC(=O)CN3CCN(CC(=O)[O-])CCN(CC(=O)[O-])CCN(CC(=O)[O-])CC3)NC(=O)CCCc3ccc(I)cc3)cccc12.[177Lu+3],,,"U-87 MG tumour-bearing mice, blood","dose not given, 1 h post-injection, biodistribution",,blood radioactivity,21.4 ± 3.88%
Cc1c(Cc2cccc(OC(C)(C)C(=O)O)c2)c2ccc(C(=O)N[C@@H](C)c3cccc(OC(F)(F)F)c3)cc2n1C,,,human liver microsomes,,,half-life,59.2 min
CCCCN1C(=O)c2cccc3c(NCCCCN4CCOCC4)ccc(c23)C1=O,,,toluene,,,fluorescence lifetime,8.2 ns
O=C1CCC(N2Cc3cc(N4CCN(CC5CCN(c6ccc(C7c8ccc(OC9OC(C(=O)O)C(O)C(O)C9O)cc8CCC7c7ccccc7)cc6)CC5)CC4)ccc3C2=O)C(=O)N1 (stereo not drawn),,,"Sprague-Dawley rat, female, bile duct-cannulated, bile",0 to 72 h,baseline: dose,biliary excretion,0.32%
Cc1nn(-c2cccc(N)c2)c(=O)c2cnc(Nc3ccc(N4CCNCC4)cc3)nc12,"Calcium/calmodulin-dependent protein kinase type 1D (CAMK1D, Homo sapiens, UniProt Q8IU85)",SelectScreen kinase,,,,IC50,> 10 µM
Cc1ncsc1-c1ccc(C(C)NC(=O)C2CC(O)CN2C(=O)C(NC(=O)CCCCCCCCCCN2CCCC(Nc3ncc(Cl)c(Nc4ccccc4S(=O)(=O)C(C)C)n3)C2)C(C)(C)C)cc1 (stereo not drawn),22Rv1,"RNA-seq, refers to: RFX3 mRNA",,concentration not given,baseline: DMSO,log2 fold change,-2.52
CC(C)=CCCC(C)CN(C)CCc1ccccn1 (stereo not drawn),Trypanosoma cruzi,"reporter mRNA translation, inhibitor, refers to: Renilla luciferase mRNA",cell-free extract,"concentration not given, test 1",baseline: positive over negative control,translation activity,104%

# A few entries again:
SMILES,target or system,test,test system,setting,how to read,endpoint,result
Cc1ncsc1-c1ccc(C(C)NC(=O)C2CC(O)CN2C(=O)C(NC(=O)CCCCCCCCCCN2CCCC(Nc3ncc(Cl)c(Nc4ccccc4S(=O)(=O)C(C)C)n3)C2)C(C)(C)C)cc1 (stereo not drawn),22Rv1,"RNA-seq, refers to: RFX3 mRNA",,concentration not given,baseline: DMSO,log2 fold change,-2.52
CCOc1cc(CN2CCCC(CNC(=O)c3ccc(F)cc3)C2)ccc1OC (stereo not drawn),Trypanosoma cruzi,"reporter mRNA translation, inhibitor, refers to: Renilla luciferase mRNA",cell-free extract,"concentration not given, test 1",baseline: positive over negative control,translation activity,83.5%
CNc1cc(N)c(C(N)=O)cn1,,,"Han Wistar rats, male, plasma","oral, 30 mg/kg, 2.00 h",,concentration at time,13.6 µM
